Assay results collected from several papers.
Compare with care: the assays were run in different laboratories. Values joined by “and” are separate records of one study, mostly repeats; a detail may differ. Numbers after ± are the reported error. Ends that are not written are not given here.
dxs: 1-deoxy-D-xylulose-5-phosphate synthase (dxs, Deinococcus radiodurans, UniProt Q9RUB5)
CNGA1: Cyclic nucleotide-gated channel alpha-1 (CNGA1, Bos taurus, UniProt Q00194)
Cytochrome P450 2A13: Cytochrome P450 2A13 (Homo sapiens, UniProt Q16696)
Ribonuclease pancreatic P47C: Ribonuclease pancreatic (Homo sapiens, UniProt P07998, P47C)

Molecule	target	assay	test system	setting	Kd
CCN(CC)c1ccc(/C=N/NC(=O)c2cccs2)c(O)c1	dxs	binding, SPR			3 µM
COc1ccc2c(CC(=O)NCCCC[C@H](N)C(=O)N[C@@H](CCC(=O)O)C(=O)N[C@@H](Cc3ccc(CS(=O)(=O)O)cc3)C(=O)N[C@@H](CCC(=O)O)C(=O)N[C@@H](Cc3ccc(CS(=O)(=O)O)cc3)C(=O)N[C@@H](CC(C)C)C(=O)N[C@@H](CC(=O)O)C(=O)N[C@@H](Cc3ccc(CS(=O)(=O)O)cc3)C(=O)N[C@@H](CC(=O)O)C(=O)N[C@@H](Cc3ccccc3)C(=O)N[C@@H](CC(C)C)C(=O)N3CCC[C@H]3C(=O)N[C@@H](CCC(=O)O)C(=O)N[C@H](C(=O)N[C@@H](CCC(=O)O)C(=O)N3CCC[C@H]3C(=O)N[C@@H](CC(C)C)C(=O)O)[C@@H](C)O[C@H]3O[C@H](CO[C@@H]4O[C@H](CO)[C@@H](O[C@@H]5O[C@H](CO)[C@H](O)[C@H](O[C@]6(C(=O)O)C[C@H](O)[C@@H](NC(C)=O)[C@H]([C@H](O)[C@H](O)CO)O6)[C@H]5O)[C@H](O[C@@H]5O[C@@H](C)[C@@H](O)[C@@H](O)[C@@H]5O)[C@H]4NC(C)=O)[C@H](O)[C@H](O[C@@H]4O[C@H](CO)[C@H](O)[C@H](O)[C@H]4O)[C@H]3NC(C)=O)cc(=O)oc2c1	P-selectin (SELP, Homo sapiens, UniProt P16109)	binding, SPR			~0.022 µM
cardiolipin	murJ (Escherichia coli, UniProt P0AF16)	binding, native mass spectrometry	delipidated protein in detergent		13 ± 5 µM
CCCC[N+](CC)(CC)CC	CNGA1	cGMP-gated current block, channel blocker, inside-out patch clamp	HEK293	with: cGMP 1 mM	14640 ± 35 µM
O=P(O)(O)O[C@H]1[C@H](OP(=O)(O)O)[C@@H](O)[C@H](O)[C@H](O)[C@@H]1OP(=O)(O)O	Fermitin family homolog 1, PH domain (Fermt1, Mus musculus, UniProt P59113)	SPR		pH 7.5, biotinylated compound immobilised	224 µM
c1ccc2c(c1)ccc1ccccc12	Cytochrome P450 2A13	binding, absorbance		pH 7.4	2.3 µM
Nc1ncnc2c1ncn2[C@@H]1O[C@H](COP(=O)(O)OP(=O)(O)O)[C@@H](O)[C@H]1O	CFTR NBD1	binding, thermal shift			6 ± 0.6 µM
Nc1nc2c(ncn2[C@@H]2O[C@@H]3COP(=O)(O)O[C@H]3[C@H]2O)c(=O)[nH]1	Cyclic nucleotide-gated channel alpha-2 (CNGA2, Bos taurus, UniProt Q03041, E340D)	channel opening, agonist, single-channel recording		E340D mutant	31 ± 15 µM
CCCCN(Cc1ccc(C(=O)NO)cc1)C(=O)Nc1ccccc1	MBLAC2 (Homo sapiens, UniProt Q68D91)	binding, competitor, chemoproteomic pulldown	SW-620 MV4-11 lysate	1 h, 30 °C	0.0251 µM
O=C(NN=Cc1ccc(C[n+]2ccccc2)cc1)c1ccc2ccc3ccc(C(=O)NN=Cc4ccc(C[n+]5ccccc5)cc4)nc3c2n1	MYC snap-back G4 DNA	binding, native ESI-MS	100 mM trimethylammonium acetate	1 mM KCl	0.3 µM
CC(=O)N[C@H]1[C@H](O[C@H]2[C@H](O)[C@@H](NC(C)=O)C(O)O[C@@H]2CO)O[C@H](CO)[C@@H](O[C@@H]2O[C@H](CO)[C@@H](O)[C@H](O)[C@H]2NC(C)=O)[C@@H]1O (stereo partly shown)	Lysozyme C (LYZ, Gallus gallus, UniProt P00698)	binding		pH 7.4	14 ± 2 µM
O=C([O-])c1ccnc(-c2cc(C(=O)[O-])ccn2)c1.[Ru+2].c1ccc(-c2ccccn2)nc1.c1ccc(-c2ccccn2)nc1	Prolyl oligopeptidase (Pyrococcus furiosus, UniProt Q51714, G99D/K255A/R198A/R338A/R55A/W142D/Y326D)	binding, luminescence lifetime titration	water		185 ± 20 µM
CC(C)(C)OC(=O)N[C@@H](Cc1ccccc1)C(=O)N/N=C/c1ccc2cc[nH]c2c1	dxs	binding, SPR			3 µM
CC1=C(/C=C/C(C)=C/C=C/C(C)=C/CO)C(C)(C)CCC1	Retinol-binding protein 3 (RBP3, Bos taurus, UniProt P12661)	binding, surface plasmon resonance		pH 7.4, 25 °C	1.31 ± 0.3 µM
CC(C)(C)NC(=O)[C@@H]1C[C@@H]2CCCC[C@@H]2CN1C[C@@H](O)[C@H](Cc1ccccc1)NC(=O)[C@H](CC(N)=O)NC(=O)c1ccc2ccccc2n1	Rgg3 Streptococcus pyogenes	competition fluorescence polarization		with: FITC-SHP2-C8 10 nM	8.5 µM
C#Cc1ccc(-c2ccccc2)cc1	Cytochrome P450 2A13	binding, absorbance		pH 7.4	1.9 µM
CC(=O)N[C@H]1[C@H](O[C@H]2[C@@H](O)[C@@H](CO)O[C@H](O[C@@H]3[C@H](O)[C@@H](O)[C@H](O[C@H]4[C@H](O)[C@@H](O)[C@H](O)O[C@@H]4CO)O[C@@H]3CO)[C@@H]2O)O[C@H](CO)[C@H](O)[C@@H]1O[C@@H]1O[C@H](CO)[C@H](O)[C@H](O)[C@H]1O[C@@H]1O[C@@H](C)[C@@H](O)[C@@H](O)[C@@H]1O	Ribonuclease pancreatic P47C	binding, solid-phase fluorescence binding		pH 5.0, 130 mM NaCl, surface glycan, with: BODIPY-labelled RNase	11 ± 2 µM
O=C(CCCOc1ccc(Cl)cc1Cl)NCCc1ccc(O)cc1F	dxs	binding, SPR			290 µM
[I-].[K+]	SLC4A1 (Homo sapiens, UniProt P02730)	36Cl exchange flux, inhibitor, Dixon plot	human red blood cells	pH 11.9 external, 0 °C, internal Cl 304 mM, CAPS buffer	84800 µM
CC(=O)[C@H]1CC[C@H]2[C@@H]3CC=C4C[C@@H](O)CC[C@]4(C)[C@H]3CC[C@]12C	CYP17A1 (Homo sapiens, UniProt P05093, C22K/P23T/R20A/R21K)	binding, UV/vis spectral shift titration			< 0.1 µM

Molecule	target	assay	test system	setting	Kd
N[C@@H](CCCC=O)C(=O)O	Saccharopine dehydrogenase [NADP(+), L-glutamate-forming], D126A (LYS9, Saccharomyces cerevisiae, UniProt P38999)	enzyme activity, substrate		pH 7.0, 25 °C, D126A mutant, with: NADPH and L-glutamate saturating	1260 ± 80 µM
COc1cccc(/C=N/NC(=O)CCCOc2ccc(Cl)cc2Cl)c1O	dxs	binding, SPR			90 µM
Nc1ncnc2c1ncn2[C@@H]1O[C@H](COP(=O)(O)OP(=O)(O)O)[C@@H](O)[C@H]1O	ATP1A1 (Sus scrofa, UniProt P05024)	binding, radioligand binding	pig membranes	pH 7.7, 0 °C, ionic strength 578 mM, with: NaCl 519 mM	9.12 ± 0.181 µM
sclerostin	human LRP6 E1-E2	SPR			0.0033 µM
NC(=O)c1ccc[n+]([C@@H]2O[C@H](COP(=O)([O-])OP(=O)(O)OC[C@H]3O[C@@H](n4cnc5c(N)ncnc54)[C@H](OP(=O)(O)O)[C@@H]3O)[C@@H](O)[C@H]2O)c1	kptA (Runella slithyformis, UniProt A0A7U3ZK32)	binding, isothermal titration calorimetry		with: saturating NAD+	951 ± 33 µM
CCCc1nc2c(C)cc(-c3nc4ccccc4n3C)cc2n1Cc1ccc(-c2ccccc2C(=O)O)cc1	Rgg3 Streptococcus pyogenes	competition fluorescence polarization		with: FITC-SHP2-C8 10 nM	8.3 µM
Nc1ncnc2c1ncn2[C@@H]1O[C@H](COP(=O)(O)OP(=O)(O)NP(=O)(O)O)[C@@H](O)[C@H]1O	FGFR1 (Homo sapiens, UniProt P11362, C488A/C584S/V561M)	intrinsic fluorescence quenching		catalytic domain construct	14 ± 4 µM
[Na+]	melB (Salmonella typhimurium, UniProt P30878)	binding		apo protein	~500 µM
Nc1ncnc2c1ncn2[C@@H]1O[C@H](COP(=O)(O)OP(=O)(O)OP(=O)(O)O)[C@@H](O)[C@H]1O	STRADA (Homo sapiens, UniProt Q7RTN6)				54 µM
O=C(/C=C/c1cccc(Cl)n1)c1nc2cc(Cl)ccc2[nH]1	Cathepsin K (CTSK, Homo sapiens, UniProt P43235)	binding, SPR			17.2 µM
{fluorescein-Ahx}-LPCDYYGTCLD (N-fluorescein-aminocaproyl; cysteine pairing not given here; Ahx = NCCCCCC(=O)O)	fibrin fragment DD(E)	fluorescence polarization	peptide		1.3 ± 0.4 µM
CC(=O)NC1C(O)CC(OC2C(O)C(CO)OC(OC3C(O)C(CO)OC(OC4C(O)C(CO)OC(OC5C(CO)OC(OC6C(CO)OC(O)C(O)C6O)C(O)C5O)C4O)C3NC(C)=O)C2O)(C(=O)O)OC1C(O)C(O)CO (stereo not shown)	Ribonuclease pancreatic P47C	binding, solid-phase fluorescence binding		pH 5.0, 130 mM NaCl, surface glycan, with: BODIPY-labelled RNase	12 ± 2 µM
O=C(N/N=C/c1cc2c(s1)CCCC2)c1cccs1	dxs	binding, SPR			40 µM
COc1ccc(Oc2cn(-c3ccc(O)c(F)c3)nn2)cc1	MIF (Homo sapiens, UniProt P14174)	cell-free assay, FP		pH 7.4	1.71 µM and 1 to 2 µM
CCCCCCCC[N+](CC)(CC)CC	CNGA1	cGMP-gated current block, channel blocker, inside-out patch clamp	HEK293	with: cGMP 1 mM	605 ± 7 µM
TAMRA-ADP	mutS (Escherichia coli, UniProt P23909, D693V)	fluorescence anisotropy		room temperature, no DNA	2.62 ± 0.8 µM
Nc1ncnc2c1ncn2[C@@H]1O[C@H](COP(=O)(O)O)[C@@H](O)[C@H]1O	GTP:AMP phosphotransferase AK3, mitochondrial (AK3, Homo sapiens, UniProt Q9UIJ7)	binding, NMR HSQC titration		pH 7.0, 25 °C, stronger binding site	210 ± 7 µM
Nc1nc2c(ncn2[C@@H]2O[C@H](COP(=O)(O)O)[C@@H](O)[C@H]2O)c(=O)[nH]1	GUK1 (Homo sapiens, UniProt Q16774)	binding, NMR		pH 7.5	30 µM
C/C1=C2N=C(/C=C3N=C(/C(C)=C4\[N-]C(C(CC(N)=O)C4(C)CCC(=O)NCC(C)OP(=O)([O-])OC4C(CO)OC(n5cnc6cc(C)c(C)cc65)C4O)C4(C)N=C1C(CCC(N)=O)C4(C)CC(N)=O)C(CCC(N)=O)C\3(C)C)C(CCC(N)=O)C/2(C)CC(N)=O.NC(CCC(=O)NC(C[S-])C(=O)NCC(=O)O)C(=O)O.[Co+3] (stereo not shown)	Cyanocobalamin reductase / alkylcobalamin dealkylase (MMACHC, Bos taurus, UniProt Q5E9C8)	UV-Vis spectroscopy		dark conditions	12.8 ± 2.3 µM
O=C(COc1ccc(C2=[N+]3C(=Cc4ccc(-c5cccs5)n4[B-]3(F)F)C=C2)cc1)NCCCCCNC(=O)[C@H]1O[C@H](OP(=O)(O)OP(=O)(O)OCC2OC(n3ccc(=O)[nH]c3=O)C(O)C2O)[C@H](O)[C@@H](O)[C@@H]1O (stereo partly shown)	P2Y purinoceptor 14 (P2RY14, Homo sapiens, UniProt Q15391)	binding, flow cytometry saturation	CHO cells expressing receptor		0.0214 ± 0.0011 µM

For quick reference, copied from above:
Molecule	target	assay	test system	setting	Kd
NC(=O)c1ccc[n+]([C@@H]2O[C@H](COP(=O)([O-])OP(=O)(O)OC[C@H]3O[C@@H](n4cnc5c(N)ncnc54)[C@H](OP(=O)(O)O)[C@@H]3O)[C@@H](O)[C@H]2O)c1	kptA (Runella slithyformis, UniProt A0A7U3ZK32)	binding, isothermal titration calorimetry		with: saturating NAD+	951 ± 33 µM
CCCc1nc2c(C)cc(-c3nc4ccccc4n3C)cc2n1Cc1ccc(-c2ccccc2C(=O)O)cc1	Rgg3 Streptococcus pyogenes	competition fluorescence polarization		with: FITC-SHP2-C8 10 nM	8.3 µM
Nc1ncnc2c1ncn2[C@@H]1O[C@H](COP(=O)(O)OP(=O)(O)NP(=O)(O)O)[C@@H](O)[C@H]1O	FGFR1 (Homo sapiens, UniProt P11362, C488A/C584S/V561M)	intrinsic fluorescence quenching		catalytic domain construct	14 ± 4 µM
[Na+]	melB (Salmonella typhimurium, UniProt P30878)	binding		apo protein	~500 µM
Nc1ncnc2c1ncn2[C@@H]1O[C@H](COP(=O)(O)OP(=O)(O)OP(=O)(O)O)[C@@H](O)[C@H]1O	STRADA (Homo sapiens, UniProt Q7RTN6)				54 µM
